# Measurements from different studies.
# A part holds a random share of what one study measured.

# Series 1
# Target: RNA binding protein fox-1 homolog 2, RRM domain, GST-SBP tag (RBFOX2, Homo sapiens, UniProt O43251-10, residues 100-194)
# Method: RNA Bind-n-Seq
# Form: RNA
# Sample: in vitro
# Concentration: 365 nM
# Setting: natural RNA segment, single round, ends assumed
# Relative to: no-protein control
# Reading: higher = stronger binding
# Construct (chain): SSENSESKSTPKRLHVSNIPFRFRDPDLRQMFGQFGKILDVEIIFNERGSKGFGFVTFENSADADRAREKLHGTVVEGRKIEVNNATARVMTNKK
Sequence,RBNS enrichment (R)
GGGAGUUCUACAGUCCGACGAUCAUGGCCUCACCUGGCAGCCCUCUGGCCUAGUUCCCACCACACAUGAGGUGGUGGAAUGGCCUGAAGGUGGAACAGACCUGUUUUUUUCCUUUUUAAAUGCAGUAAGGUGGUGGAAUUCUCGGGUGCCAA,0.297
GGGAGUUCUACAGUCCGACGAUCACCUGGAAGUUGCCCAUUUAACUAAUUAUUCUGUCCUGUGACUGUCAUCCUUCCAGUUGUUGUGUAGCGUAUGGAACCAUGUCAUCCUUUUACUAGGCAAAUACACAUACUGGAAUUCUCGGGUGCCAA,0.673
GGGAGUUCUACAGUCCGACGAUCCUGAUGCGGCCACUCAUUCGGCUCCCCAGAAUUCCUAGACUGGGUUAAUAGGGUCAUAUUGUGAAUGUCUCACUACAAAAUGACUUGAGUCCAGUGAAAUCUCAUUAGGGUGGAAUUCUCGGGUGCCAA,0.637
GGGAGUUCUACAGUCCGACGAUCCAAGAACGGUAUGCCAGUCAGGUCCUGGAAGUAAAAUGGAGGCACAAUAUAGCACUGACUGAGUUGUAAAGCCUCCUGCCUGGAGACUUCAGUUAUAGCUGUAAUAAUUAUGGAAUUCUCGGGUGCCAA,0.718
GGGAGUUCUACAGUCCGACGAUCUACAAAACAAUAACCCUUCUGGGGUUUCUUGUGGCGGUUGAAAUAGUCCCACAUGUGGUCAUCAGAAAAUAAGCCAUUCCUCAUACCAAUAUAGGAUCAGCUCCUUGACCUGGAAUUCUCGGGUGCCAA,0.213
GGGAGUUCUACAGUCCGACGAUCUCACUACAGCAACCACAUACAGUACAGACAACCUCCAAACCUGUUUAUAUUAGUGUAAAUAGAAAAUCUAUAGACAACUUUCUAGUUUUCUCUGGAGGCAUUUUUGGGAAUGGAAUUCUCGGGUGCCAA,0.882
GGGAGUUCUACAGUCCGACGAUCGCUUUGGGUUUUUAGGGUUUUAAUAGGUAGACUCUGUUCUAUUAUUAGGUGUUAAGAGUUUCCAAACGUGUUUUCUUUUUUCUUUUAUUGUUUGCUUAAACUUUGAAGAAUGGAAUUCUCGGGUGCCAA,0.646
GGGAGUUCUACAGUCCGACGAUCCAGUCUGGGCCUCAGACUCAGACUGCUGUAUCUAGCCUACGUUGUCACAAUUUCCUUCUCUGUUAACUCUGUGACUGUUCUUCCUUUUGCUACUCUCGACGUAACAUAUAUGGAAUUCUCGGGUGCCAA,0.316
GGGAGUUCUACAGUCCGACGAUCUUUUAUUCCUUAUGUGUCUUAUAAGGAAUAAAAUGGUCUUCAUUUGACACUUACUUUCCCAUGAACACUUGCAGUUGCUAAGGGACUUUAUUUUGUAACAUAUCAAUUAUUGGAAUUCUCGGGUGCCAA,0.433
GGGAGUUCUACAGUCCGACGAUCCAGUGUAGUCUCAAUUAUAUCUGAAAGUAAUUGUGACUAACAAGUAUGCUUUGCCUUAUUUCCACAUUUAAACUACCUGUUAAUAUAAGGGAUUUGUAGUAUCAGCUUGUUGGAAUUCUCGGGUGCCAA,0.37
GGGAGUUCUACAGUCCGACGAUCGCCUCGACAUUUCAAGUUGCGGUGUGUGACGGAGGUGGCUGCCGAACGAGAAGAGAUGCCACAGUGUAUCGUGUCUCUAGUUGUAUUGUAUACCUGCUUAACAUCUGCGAUGGAAUUCUCGGGUGCCAA,0.257
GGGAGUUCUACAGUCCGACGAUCCCGCUUGUCCCUCUUAGGCAUUUCAGGCUUCCUUUGGGAUUUCAGGUGUCCCAUGAUCUUGAUGUGCUGCUAGGCUGGAGCACACACUGGCCAUUACUGAACACAGCCAUUGGAAUUCUCGGGUGCCAA,0.877

# Series 2
# Target: Centromere-binding protein 1, full length, N-terminal tag (CBF1, Saccharomyces cerevisiae, UniProt P17106, residues 1-351)
# Sequence of UniProt P17106 (whole entry, looked up): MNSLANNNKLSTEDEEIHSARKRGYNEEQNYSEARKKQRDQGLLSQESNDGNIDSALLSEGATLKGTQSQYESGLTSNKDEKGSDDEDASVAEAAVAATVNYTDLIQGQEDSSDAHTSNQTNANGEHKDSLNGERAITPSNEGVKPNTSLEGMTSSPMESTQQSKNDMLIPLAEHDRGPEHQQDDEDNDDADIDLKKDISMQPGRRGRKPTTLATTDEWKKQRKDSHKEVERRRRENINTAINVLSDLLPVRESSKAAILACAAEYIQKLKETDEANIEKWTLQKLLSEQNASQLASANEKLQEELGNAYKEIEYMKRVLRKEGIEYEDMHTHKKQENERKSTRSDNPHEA
# Method: protein-binding microarray
# Form: double-stranded DNA, one strand shown
# Sample: in vitro
# Concentration: 0.8 µM
# Setting: whole 60-bp probe, no competitor
# Reading: higher = stronger binding
Sequence,fluorescence intensity
GAACTGATCGTAGATCATCAGATTTGATATGATTAGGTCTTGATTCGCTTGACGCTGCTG,511 a.u.
TGTACGAAGCTATGGTGACTGAGTATAGTAGTTAGGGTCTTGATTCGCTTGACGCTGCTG,534 a.u.
CTATTCTTTTCGCGTGGTCATTTTCGCGTTGGGTTCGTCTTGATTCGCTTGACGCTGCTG,687 a.u.
CTAAAAAGAACTGTGTACGTGATTTCTTTGTCCTTCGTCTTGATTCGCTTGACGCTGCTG,697 a.u.
GAAATTCGTACGTCCCATGTGCTCGGTCATACTTAGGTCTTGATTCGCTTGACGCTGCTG,621 a.u.
CTATATCTTACGCGTCACGCGTCGCGTTGCCGTTTCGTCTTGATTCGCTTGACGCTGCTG,1390 a.u.
GAAGGAGCCAGCCATGGCATCATGCGCTACCGCTAGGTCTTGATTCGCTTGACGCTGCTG,542 a.u.
CTATCGCTAGGCGGTGATGCATTTCCGCACAGGTTCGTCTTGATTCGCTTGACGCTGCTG,477 a.u.
GAAACGAATATGGGAATCGTGATTAATTAAGTGTAGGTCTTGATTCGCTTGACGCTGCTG,733 a.u.
CTACATGTATTGTTTCACATGAAATTTCGGCCATTCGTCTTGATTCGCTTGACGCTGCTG,556 a.u.
GAATGGGTCCTAATGCATGTGGTGCATGGGTCCTAGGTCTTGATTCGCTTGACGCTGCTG,524 a.u.
CTAATTGAAGTGAGTGTCACGTGCACAGCGACGTTCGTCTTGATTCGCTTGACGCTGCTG,19000 a.u.
CTAAAACTCAACAGCTGCGTGATGAACGCGCTGTTCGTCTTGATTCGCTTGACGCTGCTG,617 a.u.
CTATATTTTTTTCACGTGCTTTTTTTTCAAGGCTTCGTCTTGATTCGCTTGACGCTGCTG,7280 a.u.
GAACGTGGAGCAAGCCACGCCATGTGATTAACCTAGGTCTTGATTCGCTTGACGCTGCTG,2930 a.u.
TGTACGAAGCTATCTCATGTGATTATAGTAGTTAGGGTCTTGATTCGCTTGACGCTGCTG,893 a.u.
GAATTGTTTTTATCAGTTGAGATTGAAGTATTTTAGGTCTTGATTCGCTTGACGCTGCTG,553 a.u.
CTAAGGGTGCGCGGGCACGCAGGGTAAGAGCCGTTCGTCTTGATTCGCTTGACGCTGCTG,475 a.u.
CTATCTAAAATTGGTCACGATACTAATCTTGAGTTCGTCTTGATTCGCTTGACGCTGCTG,2410 a.u.
CCTAACTACTATATCAACATGCAATAGCTTCGTACAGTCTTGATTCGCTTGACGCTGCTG,534 a.u.
TGTACGAAGCTATCACCCGTGTATATAGTAGTTAGGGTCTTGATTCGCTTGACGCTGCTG,545 a.u.
GAATCACAAGGATTTCACGAGGATTTCTAACACTAGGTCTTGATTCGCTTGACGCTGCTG,579 a.u.
CTATTGGGTTTACTTAGCGTGCTTTTTTTCTTCTTCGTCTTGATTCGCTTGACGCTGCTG,504 a.u.
GAACAAGAGAAATTTCATGACACTTTTTTAAACTAGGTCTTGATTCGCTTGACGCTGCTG,525 a.u.
CTAATTGAAAACAGTCATCTGATTTAATGGAAGTTCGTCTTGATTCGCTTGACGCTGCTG,1140 a.u.

# Series 3
# Target: Interferon regulatory factor 7, full length, phosphomimetic (IRF7, Homo sapiens, UniProt Q92985, residues 1-503, S471D/S472D/S475D/S476D/S477D/S483D/S484D/S487D)
# Method: protein-binding microarray
# Form: double-stranded DNA, one strand shown
# Sample: in vitro
# Concentration: 2200 nM top
# Setting: 60-bp whole probe
# With: salmon DNA 0.4 mg/ml
# Relative to: random background probes
# Reading: higher = stronger binding
# Constant ends, left off below: GCCTAGCAC … GTCTTGATTCGCTTGACGCTGCTG
# Residues (chain): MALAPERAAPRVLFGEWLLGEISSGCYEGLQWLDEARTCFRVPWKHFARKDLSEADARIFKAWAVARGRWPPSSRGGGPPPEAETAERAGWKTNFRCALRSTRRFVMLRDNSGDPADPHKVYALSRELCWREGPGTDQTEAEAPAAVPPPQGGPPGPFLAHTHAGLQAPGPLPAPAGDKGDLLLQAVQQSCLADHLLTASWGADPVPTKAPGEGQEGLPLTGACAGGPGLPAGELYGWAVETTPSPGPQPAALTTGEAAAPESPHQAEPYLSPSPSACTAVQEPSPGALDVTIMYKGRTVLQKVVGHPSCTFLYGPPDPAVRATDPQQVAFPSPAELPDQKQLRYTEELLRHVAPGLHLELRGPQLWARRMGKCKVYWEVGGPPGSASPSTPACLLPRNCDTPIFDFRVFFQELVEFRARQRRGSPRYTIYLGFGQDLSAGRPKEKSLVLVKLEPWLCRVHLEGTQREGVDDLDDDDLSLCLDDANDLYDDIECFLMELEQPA
Sequence,fitted relative affinity [z-score]
TTTTATATCTTATCCTATCAGTGCTAG,1.44
TGAGATATCGGGACTGGATTAGTGCTA,-0.489
ATTGCTTTCTCTTTCACTACGTGCTAG,7.42
TTAGATTTCAGTTCCGTTTAGTGCTAG,2.86
ATTTGTAAGTACATTAACTCGTGCTAG,0.44
GAGGGACTGGGTCTCGGGACGTGCTAG,-1.1
TTATATCTCAGACTGGATTAGTGCTAG,0.626
CTTGTGCTCCTTTTAATTTTGTGCTAG,0.834
GACGGTTTAGGGACTGGGGACGTGCTA,-0.131
GACGGTCACGGACTGGGGACGTGCTAG,-1.15
TTAGGTCTCCTTCTACTTTAGTGCTAG,1.01
TTAGATGTCGGGACTGGATTAGTGCTA,-0.00558
TCACCTTTATGTACTCTCACTGTGCTA,1.56
CTAGGTCTCGGTTTCGGTTAGTGCTAG,6.59
GACGAACTGTGTTTCGAGACGTGCTAG,1.2
GACGATATCGGGAGTGGAGACGTGCTA,-0.172
ACTCAGCTCCTCTTCCAGGCGTGCTAG,0.825
TCACCCATGAGTCTCAAACTGTGCTAG,0.633
GACGGTCTCGGTATTGGGACGTGCTAG,0.27
TTAGATTTTTTTTCCTAATTGTGCTAG,0.483

# Series 4
# Target: Myc proto-oncogene protein, bHLH-zipper, MAX partner unstated (MYC, Homo sapiens, UniProt P01106, residues 368-449)
# Sequence of UniProt P01106 (368-449, looked up): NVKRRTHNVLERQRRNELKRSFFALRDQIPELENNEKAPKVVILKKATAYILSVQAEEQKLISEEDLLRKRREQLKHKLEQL
# Method: protein-binding microarray
# Form: double-stranded DNA, one strand shown
# Sample: in vitro
# Concentration: not given
# Setting: k-mer, scored over probes, only values ≥0.25
# Reading: higher = stronger binding
Sequence,E-score
CGGCCACA,0.287
ACGGGGTG,0.293
AGCACGTG,0.493
CACGCCCA,0.339
ATGCCCAC,0.33
AGCCCACG,0.308
GGCGGGGA,0.348
GTGGCTCA,0.287
CATATGGA,0.287
GCACCCAC,0.335
ACGTGCTC,0.45
GCGCCGCA,0.258
AACGTGAT,0.292
AACCTCAT,0.324
ATTGCGTG,0.263
CGCGAGCA,0.271
CCGCGTGA,0.423
AGGTGGGG,0.26
ATGGGGTG,0.312
ATGCTTCC,0.311
ATCGCCAC,0.29
ACATGCCG,0.419
CACACCTC,0.325
CATGTGGA,0.463
CGCATGGC,0.472

# Excerpt of the above (series 1):
Sequence,RBNS enrichment (R)
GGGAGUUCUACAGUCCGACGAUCACCUGGAAGUUGCCCAUUUAACUAAUUAUUCUGUCCUGUGACUGUCAUCCUUCCAGUUGUUGUGUAGCGUAUGGAACCAUGUCAUCCUUUUACUAGGCAAAUACACAUACUGGAAUUCUCGGGUGCCAA,0.673
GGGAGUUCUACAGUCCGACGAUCCUGAUGCGGCCACUCAUUCGGCUCCCCAGAAUUCCUAGACUGGGUUAAUAGGGUCAUAUUGUGAAUGUCUCACUACAAAAUGACUUGAGUCCAGUGAAAUCUCAUUAGGGUGGAAUUCUCGGGUGCCAA,0.637
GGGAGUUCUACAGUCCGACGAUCCAAGAACGGUAUGCCAGUCAGGUCCUGGAAGUAAAAUGGAGGCACAAUAUAGCACUGACUGAGUUGUAAAGCCUCCUGCCUGGAGACUUCAGUUAUAGCUGUAAUAAUUAUGGAAUUCUCGGGUGCCAA,0.718
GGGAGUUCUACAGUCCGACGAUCUACAAAACAAUAACCCUUCUGGGGUUUCUUGUGGCGGUUGAAAUAGUCCCACAUGUGGUCAUCAGAAAAUAAGCCAUUCCUCAUACCAAUAUAGGAUCAGCUCCUUGACCUGGAAUUCUCGGGUGCCAA,0.213
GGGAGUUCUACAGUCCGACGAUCUCACUACAGCAACCACAUACAGUACAGACAACCUCCAAACCUGUUUAUAUUAGUGUAAAUAGAAAAUCUAUAGACAACUUUCUAGUUUUCUCUGGAGGCAUUUUUGGGAAUGGAAUUCUCGGGUGCCAA,0.882
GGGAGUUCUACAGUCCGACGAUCGCUUUGGGUUUUUAGGGUUUUAAUAGGUAGACUCUGUUCUAUUAUUAGGUGUUAAGAGUUUCCAAACGUGUUUUCUUUUUUCUUUUAUUGUUUGCUUAAACUUUGAAGAAUGGAAUUCUCGGGUGCCAA,0.646
